Results from different studies.
Parts stem from different laboratories: compare values within a part only.

Series 1 — method: RNA Bind-n-Seq; form: RNA; matrix: in vitro; concentration: 365 nM; relative to: no-protein control; reading: higher = stronger binding; measurement: RBNS enrichment (R)
Target: RNA binding protein fox-1 homolog 2, RRM domain, GST-SBP tag (RBFOX2, Homo sapiens, UniProt O43251-10, residues 100-194)
Notes: natural RNA segment, single round, ends assumed
Construct (chain): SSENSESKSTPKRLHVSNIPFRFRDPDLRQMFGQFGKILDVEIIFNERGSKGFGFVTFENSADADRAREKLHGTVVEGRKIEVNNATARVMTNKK
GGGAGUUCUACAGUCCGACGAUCCUUCAGAGGCCCUCGCUGCCAGCUCUGUAUCAGGACCCAGAGGAAGGGGCCAGAGGCUCGUUGACUGGCUGUGUGUUGGGAUUGAGUCUGUGCCACGUGUUUGUGCUGUGUGGAAUUCUCGGGUGCCAA: 5.81
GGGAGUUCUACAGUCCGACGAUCCUGCUCUGAAGGGAUCCCUCAGUUCACCGAUUGGCAAGCCAAGGUCAGUCCUUGCUGUUGAUGGAGCUGGGAGGAGGAGGGACCUAAGGACUCAGGACAGAGCAUCUCACUGGAAUUCUCGGGUGCCAA: 0.467
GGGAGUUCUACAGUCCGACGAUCUAGCCCAGGCCAAGGUAAAGUUAGUUAAUAGCAUUGGGAUAUAGUCACUGUAAUGGUGCUAUUAACAAACAGUCAACACCAUUGUAUUUUUUAACUUCGUGUUCUGUAUCUGGAAUUCUCGGGUGCCAA: 0.479
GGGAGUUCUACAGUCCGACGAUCAAUUUCCACUUCACCAGCAAUAACAAUCAGAGGAGACUUGGCCCUCAGUCCUUGUAUUUCUCUUUUUCACUCUCUCUUCCACCCCAAGAUGGAAUCUUGGGGACAGGAGGUGGAAUUCUCGGGUGCCAA: 0.549
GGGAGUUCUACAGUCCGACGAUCUUCCAGACACUGCUCACUCACUGGGUGCUGUGCUGUGGCUAGUGUAUGGCUUGUACCCAGAUGGCGCACUGUGCAGCCUGUGUAGCAUGCACAGUGACCCAGCUGAGUGGUGGAAUUCUCGGGUGCCAA: 0.538
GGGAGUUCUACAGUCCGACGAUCUGUUUUCUCUUCCCUUAGGUUGGGGCGGACCUUUGGAUAUAUAAAGGAAGCAGUUUUAGUAUCAGAAAAGAUUUAUUAGAAAAUUCUCACGCUGAACUGGUGUAGCAUGUUGGAAUUCUCGGGUGCCAA: 4.31
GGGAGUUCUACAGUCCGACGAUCUUGUACUAACUCAGCAUGUAACAACCAAUUUACAUGGAAAUAAAUCGAAAUAUGAUAACUAUUAUGCUUAAAUGGAUUUGCGUCUAUUAUUUCAUAGUAUUUACUCUCCUUGGAAUUCUCGGGUGCCAA: 0.402
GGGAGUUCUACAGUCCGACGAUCGCCAUUUCCCUUUGAUGCUUUGGUGGCCUUGCCCCGCUCUGCAGCACAGACAGGCCAGAUGCAUUUGUCCUUUGCCUAGCUACUCCCCAGGUAGAGAGUGCUCCUGGUGGUGGAAUUCUCGGGUGCCAA: 0.434
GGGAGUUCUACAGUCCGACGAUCACAGUGUAGGGUAAAGAACAGAAUUGGAACAGAACUAAGGCUGUUGCUUUCAUAGCAUCUCAGACUACUUGGAACUCCAAGGACUGCCUAACUAAAGUACUUUCACAAACUGGAAUUCUCGGGUGCCAA: 0.22
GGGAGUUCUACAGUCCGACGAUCAUUUGUUAGAAGUUUAACUCCUAACAACCCAAAGACCUAUUUAACAAUUGGUGCAUAAAUGAAAGUAGUACUGUAUACUUGAAACUGUUUAAGUACAAGUUGAACAAAAAUGGAAUUCUCGGGUGCCAA: 0.234
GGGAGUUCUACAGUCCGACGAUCAAAGGCCACCAUGAGGACAUCUCACCAACCUGUGCUCAGCAUGAACUGUGACAUCAGCCUUUGAUAGUAGGACAUUAUUUCUUGAUUUCCUUAUUAAAAGAAAAAAAUGGUGGAAUUCUCGGGUGCCAA: 5.02
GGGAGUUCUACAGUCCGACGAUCAGAUCCAGCGGAAAGUUGAAAAUAAACUGGAAUGAUCAUCUUGGCUUGGGCCGCUUAGGAACAAGAACCGGAGAGAAGUGAUUGGAAAUGAACUCUUGCCCUGGAAUAAUUGGAAUUCUCGGGUGCCAA: 0.193

Series 2 — method: RNA Bind-n-Seq; form: RNA; matrix: in vitro; concentration: 1 µM; notes: whole 134-nt RNA, ends assumed; with: 150 mM KCl; relative to: input library; reading: higher = stronger binding; measurement: log2 enrichment
Target: Ras GTPase-activating protein-binding protein 1, RRM domain (G3BP1, Homo sapiens, UniProt Q13283)
UniProt Q13283, sequence (whole entry, looked up): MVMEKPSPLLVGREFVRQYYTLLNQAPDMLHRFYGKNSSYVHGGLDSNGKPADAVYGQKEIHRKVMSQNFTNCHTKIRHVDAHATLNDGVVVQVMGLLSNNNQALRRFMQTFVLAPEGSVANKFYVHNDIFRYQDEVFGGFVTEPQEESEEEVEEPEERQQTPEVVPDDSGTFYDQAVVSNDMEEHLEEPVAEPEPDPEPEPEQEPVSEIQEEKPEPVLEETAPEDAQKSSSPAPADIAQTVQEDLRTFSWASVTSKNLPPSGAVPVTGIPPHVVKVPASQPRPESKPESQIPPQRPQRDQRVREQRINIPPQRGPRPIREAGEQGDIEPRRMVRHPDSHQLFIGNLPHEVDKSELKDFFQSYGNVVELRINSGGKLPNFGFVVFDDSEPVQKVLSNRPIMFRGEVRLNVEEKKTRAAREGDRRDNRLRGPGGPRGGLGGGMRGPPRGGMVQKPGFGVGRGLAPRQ
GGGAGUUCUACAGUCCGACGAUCGUCCUGUGCUACACAUCGUAUGUACCGAAUCGGGAAAAAGGGAAAAAGGGGAAAAAGGGAAAGUAUUAUGUUACGCCGUUCGGAUCUGCAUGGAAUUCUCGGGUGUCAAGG: 0.325
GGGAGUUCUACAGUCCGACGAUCCACAGACAACACGCACCCACACAGACACAGAGGGAAGGGGUUGGGAUGGGGACAGGGUGCACAGCAGGGCGGGGUAGGCCCCCAGCCCCUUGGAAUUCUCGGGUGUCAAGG: -0.529
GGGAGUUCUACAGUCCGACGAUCUCCUCAAGUCCUGUGCUACACAUCGUAUGUACCGAAUCGGCGGGCGGCGGGAAAGUAUUAUGUUACGCCGUUCGGAUCUGCACUUCCAGCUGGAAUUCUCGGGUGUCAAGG: -0.162
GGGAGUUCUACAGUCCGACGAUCUGGACAUGGAUUUUCAAGCCUACUUAGCUUCCUCUAGUGAAGAUGAAGAGGAGAUAGAAGAGGAGCUACAAGGUAUUGUUAAUCUUUCAGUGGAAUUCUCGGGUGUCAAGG: -0.0684
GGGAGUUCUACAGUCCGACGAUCAAGUCCUGUGCUACACAUCGUAUGUACCGAAUCGGUUUUUUUGGAAAAAAAGGUGGAAAGUAUUAUGUUACGCCGUUCGGAUCUGCACUUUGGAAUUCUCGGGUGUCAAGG: -0.423
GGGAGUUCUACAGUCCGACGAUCUGGCCCUGGUGGCAUGCGGGGGGGAAGAGGUGGCCUCAUGGAUCGUGGUGGUCCCGGUGGAAUGUUCAGAGGUGGCCGUGGUGGAGACAGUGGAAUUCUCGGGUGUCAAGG: 0.891
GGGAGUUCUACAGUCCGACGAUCGCAGGAAGUAAAAACAAAUGGAAAUGCUUCGGAUAGUGGCAGGGGUGGGGGUUGCUAAGGAAAGGGUGGGAUGGGAGUGGGUAGAGAGUUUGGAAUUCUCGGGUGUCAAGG: 0.699
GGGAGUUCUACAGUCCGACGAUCAGUCCUGUGCUACACAUCGUAUGUACCGAAUCAAACCCCCAAAUUUUUAAAUUUAAAAAAGUAUUAUGUUACGCCGUUCGGAUCUGCACUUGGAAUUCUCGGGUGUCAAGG: -0.43
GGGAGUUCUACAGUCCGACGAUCUGGCCCUGGUGGCAUGCGGGGAGGAAGAGGUGGCCUCAUGGAUCGUGGUGGUCCCGGUGGAAUGUUCAGAGGUGGCCGUGGUGGACACAGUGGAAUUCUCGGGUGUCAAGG: 2.08
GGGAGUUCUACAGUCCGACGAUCUCCUCAAGUCCUGUGCUACACAUCGUAUGUACCGAAUCGGUGGUGGGUGGGAAAGUAUUAUGUUACGCCGUUCGGAUCUGCACUUCCAGCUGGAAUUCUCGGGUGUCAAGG: -0.0523
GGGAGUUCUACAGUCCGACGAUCUCAAGUCCUGUGCUACACAUCGUAUGUACCGAAUCGGGGUUGGGUUGGGGUUGGAAAGUAUUAUGUUACGCCGUUCGGAUCUGCACUUCCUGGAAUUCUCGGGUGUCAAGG: -0.142
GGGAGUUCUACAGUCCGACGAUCUUGACCGGAGCGGCCGUCACUUUGGUACAAUCCUCAAUUACCUGCGGGAUGGGUCUGUGCCACUGCCGGAGAGUACGAGAGAACUGGGGGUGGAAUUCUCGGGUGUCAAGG: -0.489
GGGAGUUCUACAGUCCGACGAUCUUGGCUCGAGAGAUUGAAUCAAGCCCCCAGUACCGCCUACGGAUCGCCAUGGAGAACGACGAUGGGCGCACUGAAGAGGAGAAGCACAGUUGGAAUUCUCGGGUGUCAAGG: 0.0116
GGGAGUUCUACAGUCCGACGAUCAGUCCUGUGCUACACAUCGUAUGUACCGAAUCGGAAAAAAAGGAAAAAAAGGAAAGGAAAGUAUUAUGUUACGCCGUUCGGAUCUGCACUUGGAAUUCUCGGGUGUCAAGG: 0.116

Series 3 — method: protein-binding microarray; form: double-stranded DNA, one strand shown; matrix: in vitro; concentration: 0.8 µM; notes: whole 60-bp probe, no competitor; reading: higher = stronger binding; measurement: fluorescence intensity
Target: Centromere-binding protein 1, full length, N-terminal tag (CBF1, Saccharomyces cerevisiae, UniProt P17106, residues 1-351)
UniProt P17106, sequence (whole entry, looked up): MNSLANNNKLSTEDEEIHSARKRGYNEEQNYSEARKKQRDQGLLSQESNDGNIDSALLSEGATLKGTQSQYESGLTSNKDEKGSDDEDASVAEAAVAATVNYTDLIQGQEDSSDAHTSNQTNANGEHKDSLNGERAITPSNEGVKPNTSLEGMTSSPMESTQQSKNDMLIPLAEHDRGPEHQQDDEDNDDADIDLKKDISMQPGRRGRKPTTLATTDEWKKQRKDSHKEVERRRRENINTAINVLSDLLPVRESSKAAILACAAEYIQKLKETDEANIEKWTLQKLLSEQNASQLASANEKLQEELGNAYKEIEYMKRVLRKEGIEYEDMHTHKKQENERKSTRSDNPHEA
GAAAGATAGAAGAATAACATCAGCAACCAAAAATAGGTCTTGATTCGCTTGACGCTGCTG: 533 a.u.
GAAAAATAGAAGCGACACGTTACATATTAAAAGTAGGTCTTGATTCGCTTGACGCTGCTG: 801 a.u.
CTACCGATTTAAATTCACCTGGTAACTTTCCTATTCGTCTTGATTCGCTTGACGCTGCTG: 529 a.u.
TGTACGAAGCTATAGAACGTGGATATAGTAGTTAGGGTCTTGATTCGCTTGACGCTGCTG: 556 a.u.
GAATTGCTGTGAAGAGTGGTGTGGATCCAAACGTAGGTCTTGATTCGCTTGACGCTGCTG: 541 a.u.
GAACATTTAGTACCTCACGCATTACATATCTCATAGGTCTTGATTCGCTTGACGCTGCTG: 579 a.u.
CTAAGTTTTCATTGTCACGTATCTGCAATGGCATTCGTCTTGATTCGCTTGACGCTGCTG: 742 a.u.
CTACGCGCGCAAAAGCACGCACGCATTGACCGGTTCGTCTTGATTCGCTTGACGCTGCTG: 502 a.u.
CTAATTTGATTAGGTGATGAGACAAATAGTTTCTTCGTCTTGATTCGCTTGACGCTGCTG: 513 a.u.
CTACTGTTTGTTAATCACCTCACGACTGTTGCATTCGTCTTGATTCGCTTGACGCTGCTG: 583 a.u.
CTAGAAACAGATCTTGATGTTACAGCAAGGTCATTCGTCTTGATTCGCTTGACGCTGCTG: 481 a.u.
CTAAAGACATGAAATCACACTGAAATAACGCCTTTCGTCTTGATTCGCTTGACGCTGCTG: 528 a.u.
GAATAACATCACTATTACATCAGGAATAGCTGTTAGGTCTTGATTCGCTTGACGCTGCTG: 504 a.u.
CTAGATAATATACTGGTGGTGAATGACAGCAAATTCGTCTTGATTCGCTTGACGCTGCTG: 697 a.u.
CCTAACTACTATAGTAATCTGATATAGCTTCGTACAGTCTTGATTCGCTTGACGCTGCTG: 514 a.u.
CTAACCTCAAAGGACCACGTTAAGTGGCCATATTTCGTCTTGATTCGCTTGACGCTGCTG: 509 a.u.
CCTAACTACTATATGTGCGTGATATAGCTTCGTACAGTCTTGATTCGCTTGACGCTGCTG: 602 a.u.
CTACCCGAATGTTGTAACATCAAAGCCAAGCACTTCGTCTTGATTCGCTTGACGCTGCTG: 512 a.u.
CTAAAATTTTTTCGTCAGCTCTCCGAGTTCATATTCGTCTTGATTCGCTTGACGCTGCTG: 542 a.u.
CTATTGTTCTGAAATCAGGAGAATTAGAGTAGGTTCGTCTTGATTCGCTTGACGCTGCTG: 569 a.u.
GAATGTAGTGTCATTCACGTTTTCTGGGCGTTCTAGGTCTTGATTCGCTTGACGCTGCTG: 711 a.u.
CTAAAATAGTCATATCACATGCGGATACACTTCTTCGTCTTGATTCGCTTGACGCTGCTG: 1120 a.u.
GAATAGATATATTTTCTGATGTCCTAGGAATTGTAGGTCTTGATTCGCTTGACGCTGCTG: 503 a.u.
CTAATCAGAACTAAATGCGTGATCGGAAGTAATTTCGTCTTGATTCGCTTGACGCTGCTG: 691 a.u.
GAATGTGTCTGCAGCCACGTGCAAAGTACGGTCTAGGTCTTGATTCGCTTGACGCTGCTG: 3940 a.u.

Series 4 — method: protein binding microarray; form: double-stranded DNA, one strand shown; matrix: in vitro; concentration: not given; relative to: not given; reading: higher = stronger binding; measurement: E-score
Target: Histone acetyltransferase KAT6A, winged helix 1, GST fusion (KAT6A, Homo sapiens, UniProt Q92794, residues 1-85)
Notes: 8-mer, flanks averaged, mean of 2 arrays, mostly near background
Target sequence (chain): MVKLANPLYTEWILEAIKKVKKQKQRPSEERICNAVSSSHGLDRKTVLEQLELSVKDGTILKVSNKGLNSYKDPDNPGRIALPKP
AAGCTAGG: -0.111
GACAAAAA: -0.156
GCGCACAA: 0.329
AAGCATAC: -0.0482
AAACCGAC: 0.0823
CGTTAACC: 0.152
CGGTCGTC: 0.2
CACCGGGC: 0.241
ATTGCTAC: -0.0921
GCCGAACC: 0.261
ATTAACCA: -0.0587
GCGGCTTA: 0.332
AGAGGCAC: -0.08
TAAAGGTA: -0.144
ACCATCAG: -0.0104
GCTCGCCC: 0.0842
CTTATCTA: -0.0563
ACCTGCGG: 0.282
ATTGTTTC: 0.00751
AATACCAC: -0.172
AGTCGCAC: 0.112
AATTCGAG: -0.14
TCGCACGA: 0.147
GGTAGGCA: -0.102
ACGGGGCG: 0.306

A few entries again (series 4):
GCCGAACC: 0.261
AATACCAC: -0.172
TCGCACGA: 0.147
AGTCGCAC: 0.112
ATTAACCA: -0.0587
CTTATCTA: -0.0563
ACCATCAG: -0.0104
ATTGTTTC: 0.00751
GCGGCTTA: 0.332
AAACCGAC: 0.0823
CGGTCGTC: 0.2
AATTCGAG: -0.14
